Measurements collected from several papers.
Organism: Acinetobacter baumannii

SMILES | test | test system | conditions | MIC
Cc1c(CN(C)C(=O)/C=C/c2cnc3c(c2)CC(N)C(=O)N3)oc2ccccc12 (stereo not shown) | broth microdilution | AR-0312 |  | 16 µg/mL
C=CCO/N=C(\C(=O)N[C@@H]1C(=O)N(OS(=O)(=O)O)C1(C)C)c1csc(N)n1 | agar dilution | ATCC 19606 |  | 8 µg/mL
CC[C@H]1OC(=O)[C@H](C)[C@@H](OC(=O)Cc2ccc3c(c2)OCO3)[C@H](C)[C@@H](O[C@@H]2O[C@H](C)C[C@H](N(C)C)[C@H]2O)[C@](C)(OC)C[C@@H](C)C(=O)[C@H](C)[C@@H](O)[C@]1(C)O | microbial growth | ATCC19606 DSM30007 |  | 16 to 32 µg/mL
COc1cc(C(=O)Nc2ccc(C(=O)O)cc2)ccc1NC(=O)c1ccc(NC(=O)[C@H](Cc2c[nH]nn2)NC(=O)c2ccc(NC(=O)/C(C)=C/c3ccc(O)cc3)cc2)cc1 | broth microdilution | ciprofloxacin-resistant |  | 32 µg/mL
CCCCCCCCCC[N+](C)(C)CCCCCCCCCCOc1cc(OCCCCCCCCCC[N+](C)(C)CCCCCCCCCC)cc(OCCCCCCCCCC[N+](C)(C)CCCCCCCCCC)c1.[Br-].[Br-].[Br-] |  | ATCC 17978 |  | 250 µM
CCCCCCCC(=O)N[C@@H](CCN)C(=O)N[C@H](C(=O)N[C@@H](CCN)C(=O)N[C@H]1CCNC(=O)[C@H]([C@@H](C)O)NC(=O)[C@H](CCN)NC(=O)[C@H](CCN)NC(=O)[C@H](CC(C)C)NC(=O)[C@@H](Cc2ccccc2)NC(=O)[C@H](CCN)NC1=O)[C@@H](C)O | CLSI broth microdilution | 248-01-C.248, CAMHB | 20 h, 37 °C | 0.25 µg/mL
COc1ccc2ccc(O)c(/C=N/[C@H]3CCCC[C@H]3/N=C/c3cc(C(C)(C)C)cc(C(C)(C)C)c3O)c2c1 | bacterial growth, broth microdilution | carbapenem-resistant clinical isolate |  | > 40 µM
CC1(C)C(NC(=O)C(=NOC2(C(=O)O)CCC2)c2csc(N)n2)C(=O)N1OS(=O)(=O)O (stereo not shown) | agar dilution | 16-16 |  | > 64 µg/mL
CCCCCCCC(=O)N[C@@H](CCN)C(=O)N[C@H](C(=O)N[C@@H](CN)C(=O)N[C@H]1CCNC(=O)[C@H]([C@@H](C)O)NC(=O)[C@H](CCN)NC(=O)[C@H](CCN)NC(=O)[C@H]([C@@H](C)O)NC(=O)[C@@H](CC(C)C)NC(=O)[C@H](CN)NC1=O)[C@@H](C)O |  | ATCC 19606, CAMHB | 20 h, 37 °C | 1 µg/mL
O=[N+]([O-])c1cc(Cl)c2cccnc2c1O | microbial growth, broth dilution | ATCC19606 |  | 8 µg/mL
COc1cc(C(=O)O)ccc1NC(=O)c1ccc(NC(=O)c2ccc(NC(=O)[C@H](Cc3c[nH]nn3)NC(=O)c3ccc(NC(=O)/C(C)=C/c4ccc(O)cc4)cc3)cc2)cc1O | broth microdilution | ciprofloxacin-resistant |  | 8 µg/mL
CCCCCCCC(=O)N[C@@H](CCN)C(=O)N[C@H](C(=O)N[C@@H](CCN)C(=O)N[C@H]1CCNC(=O)[C@H]([C@@H](C)O)NC(=O)[C@H](C)NC(=O)[C@H](CCN)NC(=O)[C@H](CC(C)C)NC(=O)[C@@H](Cc2ccccc2)NC(=O)[C@H](CCN)NC1=O)[C@@H](C)O | CLSI broth microdilution | 248-01-C.248, CAMHB | 20 h, 37 °C | > 512 µg/mL
CC(C)C[C@@H](NC(=O)[C@@H](CC(C)C)NC(=O)[C@@H](CCCCN)NC(=O)[C@@H](CCCCNC(=O)[C@@H](CC(C)C)NC(=O)[C@@H](CC(C)C)NC(=O)[C@@H](CCCCNC(=O)[C@@H](CC(C)C)NC(=O)[C@@H](CCCCN)NC(=O)[C@@H](CCCCNC(=O)[C@@H](CC(C)C)NC(=O)[C@H](N)CCCCN)NC(=O)[C@@H](CC(C)C)NC(=O)[C@H](N)CCCCN)NC(=O)[C@@H](CC(C)C)NC(=O)[C@@H](CCCCN)NC(=O)[C@@H](CCCCNC(=O)[C@@H](CC(C)C)NC(=O)[C@H](N)CCCCN)NC(=O)[C@@H](CC(C)C)NC(=O)[C@H](N)CCCCN)NC(=O)[C@@H](CC(C)C)NC(=O)[C@@H](CC(C)C)NC(=O)[C@@H](CCCCNC(=O)[C@@H](CC(C)C)NC(=O)[C@@H](CCCCN)NC(=O)[C@@H](CCCCNC(=O)[C@@H](CC(C)C)NC(=O)[C@H](N)CCCCN)NC(=O)[C@@H](CC(C)C)NC(=O)[C@H](N)CCCCN)NC(=O)[C@@H](CC(C)C)NC(=O)[C@@H](CCCCN)NC(=O)[C@@H](CCCCNC(=O)[C@@H](CC(C)C)NC(=O)[C@H](N)CCCCN)NC(=O)[C@@H](CC(C)C)NC(=O)[C@H](N)CCCCN)C(N)=O | broth microdilution | ATCC 19606 | 20 h, 37 °C | 8 µg/mL
C#CCNC(=O)C1(O/N=C(\C(=O)N[C@@H]2C(=O)N(OS(=O)(=O)O)C2(C)C)c2csc(N)n2)CC1 | agar dilution | 16-16 |  | 128 µg/mL
CCCCCCCC(=O)N[C@@H](CCN)C(=O)N[C@H](C(=O)N[C@@H](CN)C(=O)N[C@H]1CCNC(=O)[C@H]([C@@H](C)O)NC(=O)[C@H](CCN)NC(=O)[C@H](CCN)NC(=O)[C@H]([C@@H](C)O)NC(=O)[C@@H](CC(C)C)NC(=O)[C@H](CCCN)NC1=O)[C@@H](C)O |  | ATCC 19606, CAMHB | 20 h, 37 °C | > 32 µg/mL
CC(C)(O/N=C(\C(=O)N[C@@H]1C(=O)N(OS(=O)(=O)O)C1(C)C)c1nsc(N)n1)C(=O)O | agar dilution | ATCC 19606 |  | 32 µg/mL

SMILES | test | test system | conditions | MIC
CCCCCC[N+](C)(C)CCCCOc1cc(OCCCC[N+](C)(C)CCCCCC)cc(OCCCC[N+](C)(C)CCCCCC)c1.[Br-].[Br-].[Br-] |  | ATCC 17978 |  | > 250 µM
CCCCCCCC(=O)N[C@@H](CCN)C(=O)N[C@H](C(=O)N[C@@H](CCN)C(=O)N[C@H]1CCNC(=O)[C@H]([C@@H](C)O)NC(=O)[C@H](CCN)NC(=O)[C@H](C)NC(=O)[C@H](CC(C)C)NC(=O)[C@@H](Cc2ccccc2)NC(=O)[C@H](CCN)NC1=O)[C@@H](C)O | CLSI broth microdilution | 248-01-C.248, CAMHB | 20 h, 37 °C | 16 µg/mL
CN[C@H](CC(C)C)C(=O)N[C@H]1C(=O)N[C@@H](CC(N)=O)C(=O)N[C@H]2C(=O)N[C@H]3C(=O)N[C@H](C(=O)N[C@H](C(=O)O)c4cc(O)cc(O)c4-c4cc3ccc4O)[C@H](O)c3ccc(c(Cl)c3)Oc3cc2cc(c3O[C@@H]2O[C@H](CO)[C@@H](O)[C@H](O)[C@H]2O[C@H]2C[C@](C)(NCc3ccc(OCc4cn(CC(=O)N[C@H](C(=O)N[C@@H](CCN)C(=O)N[C@H]5CCNC(=O)[C@H]([C@@H](C)O)NC(=O)[C@H](CCN)NC(=O)[C@H](CCN)NC(=O)[C@H](CC(C)C)NC(=O)[C@@H](CC(C)C)NC(=O)[C@H](CCN)NC5=O)[C@@H](C)O)nn4)c(OC)c3)[C@H](O)[C@H](C)O2)Oc2ccc(cc2Cl)[C@H]1O | broth microdilution | ATCC 17978, cation-adjusted Mueller-Hinton broth | 18 to 20 h, 37 °C, 0.002% polysorbate 80 | 32 µg/mL
CCCCCCCC[C@@H]1NC(=O)[C@@H](Cc2ccccc2)NC(=O)[C@H](CCN)NC(=O)[C@@H](NC(=O)[C@H](CCN)NC(=O)[C@@H](NC(=O)[C@H](CCN)NC(=O)CCCCCCC)[C@@H](C)O)CCNC(=O)[C@H]([C@@H](C)O)NC(=O)[C@H](CCN)NC(=O)[C@H](CCN)NC1=O | broth microdilution | ATCC 19606, colistin-susceptible |  | 0.25 to 0.5 µg/mL
CCCCCCCC(=O)N[C@@H](CN)C(=O)N[C@H](C(=O)N[C@@H](CN)C(=O)N[C@H]1CCNC(=O)[C@H]([C@@H](C)O)NC(=O)[C@H](CCN)NC(=O)[C@H](CCN)NC(=O)[C@H]([C@@H](C)O)NC(=O)[C@@H](CC(C)C)NC(=O)[C@H](CCN)NC1=O)[C@@H](C)O |  | ATCC 17978, CAMHB | 20 h, 37 °C | 0.25 µg/mL
CC1(C)[C@H](NC(=O)/C(=N\OCC(=O)N2CCC(C(=O)O)C2)c2nsc(N)n2)C(=O)N1OS(=O)(=O)O (stereo partly shown) | agar dilution | 16-16 |  | > 64 µg/mL
CC(C)C[C@@H]1NC(=O)[C@@H](CC(C)C)NC(=O)[C@H](CCN)NC(=O)[C@@H](NC(=O)[C@H](CCN)NC(=O)[C@@H](N)[C@@H](C)O)CCNC(=O)[C@H]([C@@H](C)O)NC(=O)[C@H](CCN)NC(=O)[C@H](CCN)NC1=O | broth microdilution | BAA-747 |  | > 138 µM
CC[C@H]1OC(=O)[C@H](C)[C@@H](OC(=O)Cc2cccc(Cl)c2)[C@H](C)[C@@H](O[C@@H]2O[C@H](C)C[C@H](N(C)C)[C@H]2O)[C@](C)(OC)C[C@@H](C)C(=O)[C@H](C)[C@@H](O)[C@]1(C)O | microbial growth | ATCC19606 |  | > 32 µg/mL
CCCCCCCCCC[N+](C)(C)CCCCCCOc1cc(OCCCCCC[N+](C)(C)CCCCCCCCCC)cc(OCCCCCC[N+](C)(C)CCCCCCCCCC)c1.[Br-].[Br-].[Br-] |  | ATCC 17978 |  | 1 µM
Oc1c(Br)cc(Br)c2nc3c(C(F)(F)F)cc(C(F)(F)F)cc3nc12 |  | 17978 |  | 75 µM
CCCCCCCC[N+](C)(C)CCCCOc1cc(OCCCC[N+](C)(C)CCCCCCCC)cc(OCCCC[N+](C)(C)CCCCCCCC)c1.[Br-].[Br-].[Br-] |  | ATCC 17978 |  | 63 µM
CC[C@H]1OC(=O)[C@H](C)[C@@H](OC(=O)Cc2c(F)cccc2F)[C@H](C)[C@@H](O[C@@H]2O[C@H](C)C[C@H](N(C)C)[C@H]2O)[C@](C)(OC)C[C@@H](C)C(=O)[C@H](C)[C@@H](O)[C@]1(C)O |  | DSM 30007 | with: colistin sulfate at 0.5 x MIC | 0.25 µM
C/C(=C\c1ccc(O)cc1)C(=O)Nc1ccc(C(=O)N[C@@H](Cc2c[nH]nn2)C(=O)Nc2ccc(C(=O)Nc3ccc(C(=O)Nc4ccc(C(=O)O)cc4)cc3)cc2)cc1 | broth microdilution | ciprofloxacin-resistant |  | 1 µg/mL
CCCCCCCC(=O)N[C@@H](CCN)C(=O)N[C@H](C(=O)N[C@@H](CN)C(=O)N[C@H]1CCNC(=O)[C@H]([C@@H](C)O)NC(=O)[C@H](CCN)NC(=O)[C@H](CN)NC(=O)[C@H]([C@@H](C)O)NC(=O)[C@@H](CC(C)C)NC(=O)[C@H](CCN)NC1=O)[C@@H](C)O |  | ATCC 17978, CAMHB | 20 h, 37 °C | 4 µg/mL
COc1ccc(O)c(/C=N/[C@@H]2CCCC[C@@H]2/N=C/c2c(O)ccc3ccc(OC)cc23)c1 | bacterial growth, broth microdilution | carbapenem-resistant clinical isolate |  | > 40 µM

Excerpt of the above:
SMILES | test | test system | conditions | MIC
CCCCCCCCCC[N+](C)(C)CCCCCCCCCCOc1cc(OCCCCCCCCCC[N+](C)(C)CCCCCCCCCC)cc(OCCCCCCCCCC[N+](C)(C)CCCCCCCCCC)c1.[Br-].[Br-].[Br-] |  | ATCC 17978 |  | 250 µM
C#CCNC(=O)C1(O/N=C(\C(=O)N[C@@H]2C(=O)N(OS(=O)(=O)O)C2(C)C)c2csc(N)n2)CC1 | agar dilution | 16-16 |  | 128 µg/mL
